Measurements collected from several papers.
Parts stem from different laboratories: compare values within a part only.

Sample 1 — technique: protein-binding microarray; form: double-stranded DNA, one strand shown; matrix: in vitro; tested at: 250 nM; setting: 60-bp whole probe; together with: salmon DNA 0.4 mg/ml; baseline: random background probes; direction: higher = stronger binding; shared flanks, not repeated: GCCTAGCAC … GTCTTGATTCGCTTGACGCTGCTG
Target: Interferon regulatory factor 5, full length, phosphomimetic (IRF5, Homo sapiens, UniProt Q13568-2, residues 1-514, K96S/S451D/S453D/S456D/S462D)
`TCACGCTTCATCTCCCAGACTGTGCTA` gave a log fluorescence of 0.0147 z-score.
The log fluorescence of `GACGATTCCAGTTTCGAGGCGTGCTAG` is reported as 4.27 z-score.
With `TTAGGTTCCGACACTGGGTTAGTGCTA` the log fluorescence was 0.177 z-score.
`TCATTTTTCATTGTTTTACTGTGCTAG` has a log fluorescence of 1.96 z-score.
With `TGAGGTTCCCTTTTCCTTTAGTGCTAG` the log fluorescence was 0.302 z-score.
`ATAGAACTGAGTATCGATTAGTGCTAG` gave a log fluorescence of 7.09 z-score.
With `AAATCATTTTCTCTGTTCTAGTGCTAG` the log fluorescence was 1.77 z-score.
`GACGGACTGGGACTGGTGACGTGCTAG` gave a log fluorescence of -0.635 z-score.
With `GACGGTATCGACTAGCGGGACGTGCTA` the log fluorescence was 2.72 z-score.
The log fluorescence of `TTAGAACGGAGTCTCGATTAGTGCTAG` is reported as 0.395 z-score.
The log fluorescence of `TTAGAACTGGCGACTGGATTAGTGCTA` is reported as -0.166 z-score.
The log fluorescence of `TTAGGTCTCGGACGGGGTTAGTGCTAG` is reported as -0.224 z-score.
For `GTGACTCTGAACCTTGGGCTGTGCTAG`, the log fluorescence was -0.653 z-score.
The log fluorescence of `GACGGTCTCCTTTTGCTGACGTGCTAG` is reported as -0.101 z-score.
`TCACCTCTGCATTCCCTACTGTGCTAG` has a log fluorescence of 0.236 z-score.
For `GACGTTATCCTACTGCTGACGTGCTAG`, the log fluorescence was 0.27 z-score.

Sample 2 — target: UBE2J2 UBC core domain (UniProt Q8N2K1); technique: yeast two-hybrid; matrix: yeast; setting: mostly zero background; baseline: not given; direction: higher = stronger interaction
B1: RNF7 RING domain (UniProt Q9UBF6); chain AICRVQVMDACLRCQAENKQEDCVVVWGECNHSFHNCCMSLWVKQNNRCPLCQQDWVVQRIGK
B2: TRIM28 RING domain (UniProt Q13263); chain GAEALELLEHCGVCRERLRPEREPRLLPCLHSACSACLGPAAPAAANSSGDGGAAGDGTVVDCPVCKQQCFSKDIVE
B3: TRIM74 RING domain (UniProt Q86UV6); chain SLLELEDWLQCPICLEVFKESLMLQCGHSYCKGCLVSLSYHLDTKVRCPMCWQVVDGSSSLP
B4: TRIM32 RING domain (UniProt Q13049); chain NLDALREVLECPICMESFTEEQLRPKLLHCGHTICRQCLEKLLASSINGVRCPFCSKITRITSLTQ
Residues (chain): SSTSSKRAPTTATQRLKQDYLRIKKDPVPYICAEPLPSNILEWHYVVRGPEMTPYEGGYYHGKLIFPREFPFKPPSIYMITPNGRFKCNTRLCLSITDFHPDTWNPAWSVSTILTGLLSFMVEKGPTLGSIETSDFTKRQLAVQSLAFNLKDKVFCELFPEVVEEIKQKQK
For `B1 (RNF7 RING domain)`, “lacZ reporter activity” read 0.
Under “lacZ reporter activity”, `SNNDLASLFECPVCFDYVLPPILQCQSGHLVCSNCRPKLTCCPTCRGPLGSIRNLA (SIAH1 RING domain (UniProt Q8IUQ4))` is recorded as 5400.
`B2 (TRIM28 RING domain)` — result for “lacZ reporter activity”: 0.
Under “lacZ reporter activity”, `B3 (TRIM74 RING domain)` is recorded as 0.
For `B4 (TRIM32 RING domain)`, “lacZ reporter activity” read 0.
`VPADASPDSKCPICLDRFDNVSYLDRCLHKFCFRCVQEWSKNKAECPLCKQPFDSIFHSV (TOPORS RING domain (UniProt Q9NS56))` — result for “lacZ reporter activity”: 9550.

Sample 3 — technique: RNA Bind-n-Seq; form: RNA; matrix: in vitro; tested at: 365 nM; baseline: no-protein control; direction: higher = stronger binding
Target: RNA binding protein fox-1 homolog 2, RRM domain, GST-SBP tag (RBFOX2, Homo sapiens, UniProt O43251-10, residues 100-194)
Setting: natural RNA segment, single round, ends assumed
Residues (chain): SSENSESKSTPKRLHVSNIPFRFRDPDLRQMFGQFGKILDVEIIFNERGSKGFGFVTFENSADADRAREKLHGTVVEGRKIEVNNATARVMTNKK
Under “RBNS enrichment (R)”, `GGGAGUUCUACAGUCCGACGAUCUCAGGCCAGUGCACCCCUGGGCAGAGCCCCUUAAAGCUGCUGUCACUAGAUGCCCAUGGUCCAGGGCCUGGUGGGCGUGAGAGGAUAGGUGGCAGGGCAGAAACUGGGCAUGGAAUUCUCGGGUGCCAA` is recorded as 0.474.
For `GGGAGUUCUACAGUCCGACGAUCAGCUGGGCUGGCCCAGGCCAGUGCCACCUUUGUCCUCUCUUAACUCCAAGAAGUGCAAGUGAACUUGAUUGUUGGCCCUCCCUUGACCUUCCAUAAUAGUUCCCACCCCUUGGAAUUCUCGGGUGCCAA`, “RBNS enrichment (R)” read 0.324.
Under “RBNS enrichment (R)”, `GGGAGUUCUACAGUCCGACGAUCCUGCCAAGUGAUGGAUUAUAAUGGUCUCUAGCAAAUGUGUGGUAAACAUUCAUAUGGCCAUUAAUUUUAACAUUAAAUCGUAGGUAGGGCAAUGUAGUAAAAUGAAAGAGUGGAAUUCUCGGGUGCCAA` is recorded as 0.74.
`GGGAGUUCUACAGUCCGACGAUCCAUUUAUCAUUGAUUUACCUAAUGUUACCUUGUAGAUUAAACACUAUUAAGUGGUAAUACUUGAAAAGGAGCACUUAUACCAUAAGUCUUAGGAAAUAAUGUUUGUAAUAUGGAAUUCUCGGGUGCCAA` — result for “RBNS enrichment (R)”: 0.613.
`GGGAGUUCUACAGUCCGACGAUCACUCGGUACCUGGUGUUAACUGGAGCCCUGUUUACAAGGCGGAGUCGGGUCUUGCUGACUUCUCUUCACUUGAGGUCACAUUUUUCCCCCGUGGGGAAAUAAACUGACUUUGGAAUUCUCGGGUGCCAA` — result for “RBNS enrichment (R)”: 0.231.
`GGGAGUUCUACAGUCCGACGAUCCACUGUCAUAUAUUAGAUCCUUGUAUUAGUCCAUCCAUUAAUAUUAGUUCUAUUCGUGGUGCUAGGUAGCUUGACAGGUAUGAUAUGCAUAAGUCAUAGCUCUAUUCUUAUGGAAUUCUCGGGUGCCAA`: “RBNS enrichment (R)” 0.602.
`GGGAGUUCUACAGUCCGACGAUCCACAGUGAACUGUCCCUUCUGAGUCUCCCUUUUCUACAGUUGAUAUAUUUGUAACUGGUACAAGAUGAAGGACAGCAGCUUUCCAUCCCUAGUUCAGAGCCCCCGUUCCCUGGAAUUCUCGGGUGCCAA` — result for “RBNS enrichment (R)”: 0.454.
Under “RBNS enrichment (R)”, `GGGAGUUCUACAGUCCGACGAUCGUAUUUUACAUGAAGCUGUAUAAUUAAUUGUCAUUAUUUUUGUUAGCAAAGAUUAAAUGUGUCAUUGGAAGCCAUCCCUUUUUUUACAUUUCAUACAACAGAAACCAGAAUGGAAUUCUCGGGUGCCAA` is recorded as 0.583.

Sample 4 — technique: competition protein-binding microarray; form: double-stranded DNA, one strand shown; matrix: in vitro; tested at: 2 µM; together with: Cbf1 competitor, 0.05 µM; direction: higher = stronger binding
Target: Phosphate system positive regulatory protein PHO4, full length, GST-tagged (PHO4, Saccharomyces cerevisiae, UniProt P07270, residues 1-312)
Setting: whole 60-bp probe, lowest competitor level
Residues (chain): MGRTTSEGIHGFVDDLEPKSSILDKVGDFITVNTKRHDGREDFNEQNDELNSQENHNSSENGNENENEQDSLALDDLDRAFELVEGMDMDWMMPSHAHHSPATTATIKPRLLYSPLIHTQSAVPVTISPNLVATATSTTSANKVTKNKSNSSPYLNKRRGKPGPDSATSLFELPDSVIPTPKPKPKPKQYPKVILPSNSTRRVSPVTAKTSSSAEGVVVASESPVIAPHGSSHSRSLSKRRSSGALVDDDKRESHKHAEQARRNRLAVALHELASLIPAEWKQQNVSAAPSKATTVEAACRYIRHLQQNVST
`CTAACGAAGGTTTGTCACTGTACTTACAAGCCAAGTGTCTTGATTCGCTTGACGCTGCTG` has a fluorescence intensity of 2990 a.u.
With `TGTTAGGTTTACCAGAACGTGGCCGATTTCTGCCAGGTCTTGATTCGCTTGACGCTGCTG` the fluorescence intensity was 11900 a.u.
For `CGTCCTAGTGATTGTCACGGTACTTCCATGAGGAAGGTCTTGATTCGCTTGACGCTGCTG`, the fluorescence intensity was 5080 a.u.
`CATACCCAACCTTGGATCGTGGGTGAAGATATTTGTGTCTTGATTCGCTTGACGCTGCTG` gave a fluorescence intensity of 10200 a.u.
`CTTCTGTAAATTTGAAGCGTGGGTGGACGCGCCCCGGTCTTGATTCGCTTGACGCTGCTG` has a fluorescence intensity of 7360 a.u.
The fluorescence intensity of `AAAGCGGTAATTTGCGAGGTGGGTGCAGATATCTATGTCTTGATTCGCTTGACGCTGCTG` is reported as 4240 a.u.
For `CATACCCAACCTTGGCCTGTGGGTGAAGATATTTGTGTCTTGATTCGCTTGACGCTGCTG`, the fluorescence intensity was 4240 a.u.
`CGGGGTTAAGTTTGGGTCGTGGGTGGCTTGCAGCAGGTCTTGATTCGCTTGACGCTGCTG` gave a fluorescence intensity of 9270 a.u.
The fluorescence intensity of `AGGAAGAAAGAGCTGCTCGTGTTGGTGCCAAGATCGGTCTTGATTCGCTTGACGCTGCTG` is reported as 7480 a.u.
With `AAAGCGGTAATTTGGTTTGTGGGTGCAGATATCTATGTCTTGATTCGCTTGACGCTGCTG` the fluorescence intensity was 4210 a.u.
For `TCGCGAGAATTTGGGCACATGTGTGCCGGAATGTATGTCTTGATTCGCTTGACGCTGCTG`, the fluorescence intensity was 12400 a.u.
With `GTCTTGTCTCATTGTCACCTAACTTTCCCCACTTCAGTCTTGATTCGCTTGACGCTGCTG` the fluorescence intensity was 3990 a.u.
`CTTTCCCGATCTTTTCACGTGAGCTTAGCACATTTGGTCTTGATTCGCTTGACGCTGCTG` gave a fluorescence intensity of 11200 a.u.

Some of these lines once more (sample 4):
For `TCGCGAGAATTTGGGCACATGTGTGCCGGAATGTATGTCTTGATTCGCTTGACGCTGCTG`, the fluorescence intensity was 12400 a.u.
The fluorescence intensity of `AAAGCGGTAATTTGCGAGGTGGGTGCAGATATCTATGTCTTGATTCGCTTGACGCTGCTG` is reported as 4240 a.u.
With `AAAGCGGTAATTTGGTTTGTGGGTGCAGATATCTATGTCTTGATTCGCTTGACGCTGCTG` the fluorescence intensity was 4210 a.u.
